Experimental data collected from several papers.
Lines come from different studies, so protocols differ. Values joined by “and” are separate records of one study, mostly repeats; a detail may differ. ± marks the error that the study gave.
rep main protease: Replicase polyprotein 1ab, main protease (rep, Severe acute respiratory syndrome coronavirus 2, UniProt P0DTD1)
rep nsp14 N7-methyltransferase: Replicase polyprotein 1ab, nsp14 N7-methyltransferase (rep, Severe acute respiratory syndrome coronavirus 2, UniProt P0DTD1)

Compound	tested on	test	test system	conditions	scale	measurement	result
CCCNC(=O)[C@H]1O[C@@H]1C(=O)N[C@H](C(=O)N1CCC[C@H]1C(=O)OC)[C@@H](C)CC	rep main protease	reporter gene (mKate2), inhibitor	–	20 µM	–	inhibition	-0.884%
O=C(N[C@@H](CNC(=O)[C@@H]1CCCc2[nH]cnc21)c1ccc2ccccc2c1)c1cncc(F)c1	rep main protease	enzyme activity, inhibitor	–	5 µM, mean of runs	–	inhibition	11.6%
CC(Cc1ccc(O)c(O)c1)C(C)Cc1ccc(O)c(O)c1 (stereo not drawn)	rep nsp14 N7-methyltransferase	N7-methyltransferase activity, inhibitor, Py-FLINT	–	–	–	Hill slope	1.1 ± 0.07
O=C(/C=C/c1ccccc1)c1ccc(O)cc1	rep main protease	reporter gene (mKate2), inhibitor	–	20 µM	–	inhibition	0.326%
CCN(Cc1cn(C[C@H]2O[C@@H](n3cnc4c(N)ncnc43)[C@H](O)[C@@H]2O)nn1)S(=O)(=O)c1ccc(C)cc1	rep nsp14 N7-methyltransferase	N7-methyltransferase activity, inhibitor, radioactive filter binding	–	50 µM, 0.5 h, 30 °C, with: GpppAC4 RNA, SAM	–	remaining binding	> 50%
O=C(NC[C@@H]1CC2(CCOCC2)CN1C(=O)C1=Cc2ccccc2OC1)c1cncnc1	rep main protease	enzyme activity, inhibitor	–	5 µM, run 2	–	inhibition	14.1%
O=C(O)c1ccc(Cl)cc1O	rep main protease	reporter gene (Gaussia luciferase), inhibitor	–	20 µM	–	inhibition	0.553%
Cc1ccc(C(=O)Nc2ccc(S(=O)(=O)O)c3cc(S(=O)(=O)O)cc(S(=O)(=O)O)c23)cc1NC(=O)c1cccc(NC(=O)Nc2cccc(C(=O)Nc3cc(C(=O)Nc4ccc(S(=O)(=O)O)c5cc(S(=O)(=O)O)cc(S(=O)(=O)O)c45)ccc3C)c2)c1	rep nsp14 N7-methyltransferase	N7-methyltransferase activity, inhibitor, Py-FLINT	–	–	–	Hill slope	1.17 ± 0.45
CCOC(=O)CCN(C(=O)c1ccc2c(c1)nc(CNc1ccc(C(=N)N)cc1)n2C)c1ccccn1.Cl	rep main protease	reporter gene (Gaussia luciferase), inhibitor	–	20 µM	–	inhibition	1.97%
Cc1cncc(CC(=O)N2CCC[C@H]([C@H]3CCN(C(=O)c4cnc5cc(C)ccc5c4)C3)C2)c1	rep main protease	enzyme activity, inhibitor	–	5 µM, run 2	–	inhibition	10.5%
CNC(=O)[C@@H](NC(=O)[C@H](CC(C)C)[C@H](O)C(=O)NO)C(C)(C)C	–	prothrombin time	human platelet-poor plasma	100 µM, with: GA venom	–	inhibition	19.9% and 19.3% and 18.5%
CC(C)C[C@H](NC(=O)[C@@H](NC(=O)OCc1ccccc1)C(C)(C)C)C(=O)N(C)N(C#N)CCC(N)=O	rep main protease	inhibitor, biochemical	–	–	–	kinact/Ki	2060 M⁻¹ s⁻¹
CC[C@H](C)[C@H](NC(=O)[C@H](CC(C)C)NC(=O)[C@H](Cc1c[nH]c2ccccc12)NC(=O)[C@H](CCC(N)=O)NC(=O)[C@@H](NC(=O)[C@H](Cc1ccccc1)NC(=O)[C@H](C)NC(=O)[C@H](CCCCNC(=O)COCCOCCNC(=O)COCCOCCNC(=O)CC[C@H](NC(=O)CCCCCCCCCCCCCCCCCCC(=O)O)C(=O)O)NC(=O)[C@H](CCC(N)=O)NC(=O)[C@H](C)NC(=O)[C@@H](NC(=O)[C@H](CCCCN)NC(=O)[C@H](CC(=O)O)NC(=O)[C@H](CC(C)C)NC(=O)C(C)(C)NC(=O)[C@@H](NC(=O)[C@H](CO)NC(=O)[C@H](Cc1ccc(O)cc1)NC(=O)[C@H](CC(=O)O)NC(=O)[C@H](CO)NC(=O)[C@@H](NC(=O)[C@H](Cc1ccccc1)NC(=O)[C@@H](NC(=O)CNC(=O)[C@H](CCC(=O)O)NC(=O)C(C)(C)NC(=O)[C@@H](N)Cc1ccc(O)cc1)[C@@H](C)O)[C@@H](C)O)[C@@H](C)CC)[C@@H](C)CC)C(C)C)C(=O)N[C@@H](C)C(=O)NCC(=O)NCC(=O)N1CCC[C@H]1C(=O)N[C@@H](CO)C(=O)N[C@@H](CO)C(=O)NCC(=O)N[C@@H](C)C(=O)N1CCC[C@H]1C(=O)N1CCC[C@H]1C(=O)N1CCC[C@H]1C(=O)N[C@@H](CO)C(N)=O	–	–	healthy subjects, single ascending dose	1.0 mg, baseline	–	serum amylase	67.2 ± 31.7 U/L
Cn1cnc(Cn2c(=O)[nH]/c(=N\c3cc4cn(C)nc4cc3Cl)n(Cc3cc(F)c(F)cc3F)c2=O)n1	–	–	human, moderate renal impairment	oral, 375 mg	–	anaemia TEAE, Severe severity	0%
C=CS(=O)(=O)N(c1ccc(C(C)(C)C)cc1)C(C(=O)NC1CCCCC1)c1cccnc1 (stereo not drawn)	rep main protease	inhibitor, ITC, irreversible model	–	16.7 µM	–	kon	1700 ± 0.3 M⁻¹ s⁻¹
N#C[C@@]1(n2ccc(N)nc2=O)O[C@H](COP(=O)(O)OP(=O)(O)OP(=O)(O)O)[C@@H](O)[C@H]1O	Replicase polyprotein 1ab, nsp12 with nsp7/nsp8 (rep, Severe acute respiratory syndrome coronavirus 2, UniProt P0DTD1)	–	–	with: 0.1 µM RNA	–	CNC:C mismatch amplitude	< 5%
Cc1nn(CC(=O)N2C[C@H]3C[C@@H]2CC[C@H]3NC(=O)C=C2C3CC4CC(C3)CC2C4)c(=O)n1C	rep main protease	enzyme activity, inhibitor	–	5 µM, mean of runs	–	inhibition	11.6%
O=C(Nc1ccc(-c2nc3ccccc3o2)cc1)c1ccc(NC(=O)c2cc3ccccc3o2)cc1	rep main protease	viral replication, mKate2 reporter	SARS-CoV-2	20 µM	–	inhibition	-0.209%
CC1(C)CC2(C)OC(=O)NC2(C)c2ccccc21 (stereo not drawn)	Replicase polyprotein 1ab, nsp13 helicase (rep, Severe acute respiratory syndrome coronavirus 2, UniProt P0DTD1)	binding, affinity selection mass spectrometry	–	–	reference: other proteins in batch	fold enrichment	1.5
O=C(N[C@@H](CNC(=O)[C@H]1CCCc2[nH]cnc21)c1ccc2ccccc2c1)c1cccnn1	rep main protease	enzyme activity, inhibitor	–	5 µM, mean of runs	–	inhibition	14.4%
Nc1ncnc2c([C@@H]3N[C@H](CO)[C@@H](O)[C@H]3O)c[nH]c12	Junin virus	viral replication	HeLa, Romero	0.4 µM	–	inhibition	8%

A few entries again:
Compound	tested on	test	test system	conditions	scale	measurement	result
O=C(O)c1ccc(Cl)cc1O	rep main protease	reporter gene (Gaussia luciferase), inhibitor	–	20 µM	–	inhibition	0.553%
Cc1ccc(C(=O)Nc2ccc(S(=O)(=O)O)c3cc(S(=O)(=O)O)cc(S(=O)(=O)O)c23)cc1NC(=O)c1cccc(NC(=O)Nc2cccc(C(=O)Nc3cc(C(=O)Nc4ccc(S(=O)(=O)O)c5cc(S(=O)(=O)O)cc(S(=O)(=O)O)c45)ccc3C)c2)c1	rep nsp14 N7-methyltransferase	N7-methyltransferase activity, inhibitor, Py-FLINT	–	–	–	Hill slope	1.17 ± 0.45
CC(Cc1ccc(O)c(O)c1)C(C)Cc1ccc(O)c(O)c1 (stereo not drawn)	rep nsp14 N7-methyltransferase	N7-methyltransferase activity, inhibitor, Py-FLINT	–	–	–	Hill slope	1.1 ± 0.07
CC1(C)CC2(C)OC(=O)NC2(C)c2ccccc21 (stereo not drawn)	Replicase polyprotein 1ab, nsp13 helicase (rep, Severe acute respiratory syndrome coronavirus 2, UniProt P0DTD1)	binding, affinity selection mass spectrometry	–	–	reference: other proteins in batch	fold enrichment	1.5
